Published values from different studies.
Parts stem from different laboratories: compare values within a part only. Positions count from the first letter of the parent shown.
Chain of UniProt P23443 (whole entry, looked up): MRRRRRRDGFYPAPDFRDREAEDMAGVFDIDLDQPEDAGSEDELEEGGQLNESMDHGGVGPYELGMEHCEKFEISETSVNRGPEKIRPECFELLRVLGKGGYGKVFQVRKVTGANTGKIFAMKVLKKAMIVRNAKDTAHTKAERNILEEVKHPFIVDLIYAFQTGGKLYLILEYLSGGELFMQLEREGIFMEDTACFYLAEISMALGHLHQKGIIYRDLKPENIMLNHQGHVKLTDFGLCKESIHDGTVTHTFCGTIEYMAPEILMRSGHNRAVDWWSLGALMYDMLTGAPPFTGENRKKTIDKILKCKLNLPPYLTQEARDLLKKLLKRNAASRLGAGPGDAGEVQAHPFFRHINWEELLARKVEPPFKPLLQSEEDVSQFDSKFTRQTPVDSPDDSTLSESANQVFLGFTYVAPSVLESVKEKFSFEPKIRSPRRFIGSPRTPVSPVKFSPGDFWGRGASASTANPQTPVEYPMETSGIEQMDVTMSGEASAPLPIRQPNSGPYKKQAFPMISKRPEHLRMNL
Chain of UniProt P30530 (whole entry, looked up): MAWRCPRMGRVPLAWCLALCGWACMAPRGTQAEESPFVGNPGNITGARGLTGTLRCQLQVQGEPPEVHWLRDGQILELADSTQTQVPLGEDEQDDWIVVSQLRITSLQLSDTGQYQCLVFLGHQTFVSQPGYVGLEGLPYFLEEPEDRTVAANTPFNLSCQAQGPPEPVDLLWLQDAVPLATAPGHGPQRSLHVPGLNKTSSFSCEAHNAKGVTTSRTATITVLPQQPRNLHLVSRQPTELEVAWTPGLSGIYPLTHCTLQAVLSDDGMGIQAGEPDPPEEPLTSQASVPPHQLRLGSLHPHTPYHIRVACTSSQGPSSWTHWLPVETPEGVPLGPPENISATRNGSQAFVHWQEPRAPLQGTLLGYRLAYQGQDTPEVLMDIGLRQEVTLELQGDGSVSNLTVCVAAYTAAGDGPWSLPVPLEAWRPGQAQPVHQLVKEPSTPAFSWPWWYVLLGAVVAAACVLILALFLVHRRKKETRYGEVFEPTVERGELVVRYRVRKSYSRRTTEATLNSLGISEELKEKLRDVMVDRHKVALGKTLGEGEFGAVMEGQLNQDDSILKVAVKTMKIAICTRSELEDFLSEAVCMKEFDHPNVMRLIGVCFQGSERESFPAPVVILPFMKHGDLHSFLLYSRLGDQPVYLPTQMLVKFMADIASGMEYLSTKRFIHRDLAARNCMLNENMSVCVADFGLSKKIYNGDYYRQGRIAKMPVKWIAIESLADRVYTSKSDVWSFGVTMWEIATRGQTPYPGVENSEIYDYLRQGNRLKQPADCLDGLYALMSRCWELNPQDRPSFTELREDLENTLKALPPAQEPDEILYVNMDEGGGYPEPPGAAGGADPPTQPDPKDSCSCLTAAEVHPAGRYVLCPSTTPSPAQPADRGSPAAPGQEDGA
Chain of UniProt Q9UKI8 (whole entry, looked up): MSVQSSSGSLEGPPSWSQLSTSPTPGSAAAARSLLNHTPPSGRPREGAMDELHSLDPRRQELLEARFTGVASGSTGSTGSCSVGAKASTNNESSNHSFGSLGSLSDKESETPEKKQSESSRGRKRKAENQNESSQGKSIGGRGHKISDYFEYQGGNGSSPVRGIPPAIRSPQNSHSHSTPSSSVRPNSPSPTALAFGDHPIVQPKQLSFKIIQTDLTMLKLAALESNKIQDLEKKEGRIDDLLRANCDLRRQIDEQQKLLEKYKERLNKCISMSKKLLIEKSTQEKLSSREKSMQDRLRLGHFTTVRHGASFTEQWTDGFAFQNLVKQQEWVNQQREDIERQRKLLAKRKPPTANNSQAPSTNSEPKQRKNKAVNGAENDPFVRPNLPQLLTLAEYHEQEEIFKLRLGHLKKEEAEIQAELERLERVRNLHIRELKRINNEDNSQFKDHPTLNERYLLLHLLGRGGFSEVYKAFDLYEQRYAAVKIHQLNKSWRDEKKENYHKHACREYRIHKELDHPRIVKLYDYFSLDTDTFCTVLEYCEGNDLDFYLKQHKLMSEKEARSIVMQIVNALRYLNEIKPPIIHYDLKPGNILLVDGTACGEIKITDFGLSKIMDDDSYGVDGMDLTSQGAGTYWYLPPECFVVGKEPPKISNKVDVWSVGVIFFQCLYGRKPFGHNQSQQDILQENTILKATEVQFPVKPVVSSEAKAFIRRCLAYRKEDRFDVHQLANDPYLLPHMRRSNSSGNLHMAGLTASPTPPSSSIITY
Chain of UniProt O75914 (whole entry, looked up): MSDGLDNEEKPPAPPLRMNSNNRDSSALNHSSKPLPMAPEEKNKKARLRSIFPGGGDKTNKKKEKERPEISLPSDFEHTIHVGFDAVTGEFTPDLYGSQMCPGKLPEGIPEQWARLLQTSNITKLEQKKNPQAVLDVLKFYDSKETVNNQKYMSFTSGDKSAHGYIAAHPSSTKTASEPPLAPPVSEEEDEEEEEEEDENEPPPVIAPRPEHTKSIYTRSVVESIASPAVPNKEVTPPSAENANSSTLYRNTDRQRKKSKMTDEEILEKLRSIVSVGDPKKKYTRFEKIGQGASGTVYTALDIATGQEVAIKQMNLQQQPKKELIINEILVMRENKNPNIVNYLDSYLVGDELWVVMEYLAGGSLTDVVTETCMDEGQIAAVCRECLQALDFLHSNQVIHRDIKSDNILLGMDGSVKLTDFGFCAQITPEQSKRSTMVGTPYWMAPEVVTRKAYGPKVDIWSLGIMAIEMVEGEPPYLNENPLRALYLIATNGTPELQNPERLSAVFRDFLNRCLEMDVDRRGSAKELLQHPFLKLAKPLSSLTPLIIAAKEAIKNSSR
Chain of UniProt O15264 (whole entry, looked up): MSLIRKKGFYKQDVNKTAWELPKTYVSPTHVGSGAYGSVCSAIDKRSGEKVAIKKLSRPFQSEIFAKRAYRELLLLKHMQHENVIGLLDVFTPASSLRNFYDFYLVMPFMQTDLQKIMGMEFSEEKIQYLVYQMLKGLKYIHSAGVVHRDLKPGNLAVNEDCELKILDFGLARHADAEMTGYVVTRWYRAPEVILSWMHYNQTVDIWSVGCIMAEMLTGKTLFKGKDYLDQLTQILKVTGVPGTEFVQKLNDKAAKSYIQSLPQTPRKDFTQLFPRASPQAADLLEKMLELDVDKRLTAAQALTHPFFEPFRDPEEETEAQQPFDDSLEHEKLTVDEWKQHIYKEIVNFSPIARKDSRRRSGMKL

Series 1
Target: CCND3, cyclin fold, Cln2 fusion (human)
Technique: yeast growth competition, sequencing
Sample: yeast
Notes: strong parent motif
Relative to: not given
Reading: higher = stronger binding
Starting sequence: INSM1 docking peptide (human); PKAIRKLHFEDEV
| Change | normalised enrichment score |
| --- | --- |
| PKAIKKLHFEDEV [R5K] | 0.477 |
| PKAIRSLHFEDEV [K6S] | 0.59 |
| PKAIRKLHFEDNV [E12N] | 0.92 |
| PKAIRKLHFPDEV [E10P] | 1.14 |
| PKTIRKLHFEDEV [A3T] | 0.471 |
| PKAIRKLHFEYEV [D11Y] | 0.208 |
| PKAIRKLHFWDEV [E10W] | 0.458 |
| PKNIRKLHFEDEV [A3N] | 0.124 |

Series 2
Target: Serine/threonine-protein kinase TAO1 (TAOK1, Homo sapiens, UniProt Q7L7X3)
Chain of UniProt Q7L7X3 (whole entry, looked up): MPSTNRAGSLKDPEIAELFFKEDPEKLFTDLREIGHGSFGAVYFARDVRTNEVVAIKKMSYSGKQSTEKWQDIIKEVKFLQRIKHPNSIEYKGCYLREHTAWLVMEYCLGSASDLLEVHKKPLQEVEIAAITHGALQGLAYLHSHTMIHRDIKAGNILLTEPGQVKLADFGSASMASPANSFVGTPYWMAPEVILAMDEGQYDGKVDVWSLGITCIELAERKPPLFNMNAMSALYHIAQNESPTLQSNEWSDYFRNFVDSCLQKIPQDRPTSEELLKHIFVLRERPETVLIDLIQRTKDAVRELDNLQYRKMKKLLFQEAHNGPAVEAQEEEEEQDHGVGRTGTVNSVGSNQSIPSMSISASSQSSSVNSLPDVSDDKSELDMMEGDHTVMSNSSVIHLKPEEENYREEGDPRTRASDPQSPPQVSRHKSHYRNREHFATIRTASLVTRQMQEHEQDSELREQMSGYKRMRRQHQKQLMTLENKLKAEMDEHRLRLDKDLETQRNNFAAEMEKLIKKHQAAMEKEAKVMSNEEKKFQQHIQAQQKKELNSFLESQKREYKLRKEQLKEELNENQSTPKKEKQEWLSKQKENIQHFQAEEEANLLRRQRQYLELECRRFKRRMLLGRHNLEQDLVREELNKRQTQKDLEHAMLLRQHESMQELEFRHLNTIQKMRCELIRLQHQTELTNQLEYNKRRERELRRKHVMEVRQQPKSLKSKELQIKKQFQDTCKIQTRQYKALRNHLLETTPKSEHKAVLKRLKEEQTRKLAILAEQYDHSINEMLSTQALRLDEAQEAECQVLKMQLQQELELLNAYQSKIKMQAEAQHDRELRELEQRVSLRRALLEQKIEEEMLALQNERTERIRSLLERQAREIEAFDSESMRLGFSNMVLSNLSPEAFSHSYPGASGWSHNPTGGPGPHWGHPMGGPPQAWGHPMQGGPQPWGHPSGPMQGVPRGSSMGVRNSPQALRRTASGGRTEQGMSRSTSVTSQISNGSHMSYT
Observed: enzyme activity
Mode: inhibitor
Tested at: 0.5 µM
Relative to: control
| Structure (SMILES) | remaining activity [%] |
| --- | --- |
| O=C1C(Cl)=C(N2C(=O)CCC2=O)C(=O)c2ccccc21 | 83.1 |
| O=C(NC(NC(=S)Nc1ccc(F)c([N+](=O)[O-])c1)C(Cl)(Cl)Cl)C(c1ccccc1)c1ccccc1 (stereo not shown) | 104 |
| N#C/C(=C\c1ccc(O)c(O)c1)C(=O)NCc1ccccc1 | 95.1 |
| CCOc1nc(NC(=O)Cc2cc(OC)ccc2OC)cc(N)c1C#N | 109 |
| Nc1cccc(-c2cc3c(Oc4cccc(O)c4)ncnc3[nH]2)c1 | 142 |
| c1ccc(-c2[nH]ncc2-c2ccnc3ccccc23)nc1 | 93 |
| N#Cc1c(NC(=O)c2cccc3ccccc23)sc2c1CCCC2 | 106 |
| Cn1nc2c3c(cccc31)C(=O)c1ccccc1-2 | 100 |
| CCN(CC)CCNC(=O)c1c(C)[nH]c(/C=C2\C(=O)Nc3ccc(Cl)cc32)c1C | 65.8 |
| Ic1cccc(CSc2nnc(-c3ccncc3)o2)c1 | 101 |
| Cc1cn(-c2cc(NC(=O)c3ccc(C)c(Nc4nccc(-c5cccnc5)n4)c3)cc(C(F)(F)F)c2)cn1 | 78.5 |
| Cc1cc2ncc(-c3ccccc3)nc2cc1C | 94.3 |
| CN(C)C[C@H]1CCn2c(c(C3=C(c4cn(C)c5ccccc45)C(=O)NC3=O)c3ccccc32)C1 | 93 |
| CCN(CC)C(=O)c1ccc(Nc2nc(OCC3CCCCC3)c3[nH]cnc3n2)cc1 | 57.9 |
| Cc1nc2cc3nc(-c4cccs4)cnc3cc2n1C | 110 |

Series 3
SMILES: FC(F)(F)c1ccc2c(c1)nc(-c1cccnc1)n2C1CC1
Observed: cell-free assay
Technique: competition with immobilised ligand
Tested at: 1 µM
| target | remaining binding |
| --- | --- |
| PAK3 (Homo sapiens, UniProt O75914) | 100% |
| RPS6KB1 (Homo sapiens, UniProt P23443) | 100% |
| TLK1 (Homo sapiens, UniProt Q9UKI8) | 100% |
| AXL (Homo sapiens, UniProt P30530) | 100% |
| MAPK13 (Homo sapiens, UniProt O15264) | 100% |

Series 4
Target: Phosphate system positive regulatory protein PHO4, full length, GST-tagged (PHO4, Saccharomyces cerevisiae, UniProt P07270, residues 1-312)
Technique: competition protein-binding microarray
Form: double-stranded DNA, one strand shown
Sample: in vitro
Tested at: 2 µM
Notes: whole 60-bp probe, lowest competitor level
With: Cbf1 competitor, 0.05 µM
Reading: higher = stronger binding
Constant ends, left off below: … GTCTTGATTCGCTTGACGCTGCTG
Residues (chain): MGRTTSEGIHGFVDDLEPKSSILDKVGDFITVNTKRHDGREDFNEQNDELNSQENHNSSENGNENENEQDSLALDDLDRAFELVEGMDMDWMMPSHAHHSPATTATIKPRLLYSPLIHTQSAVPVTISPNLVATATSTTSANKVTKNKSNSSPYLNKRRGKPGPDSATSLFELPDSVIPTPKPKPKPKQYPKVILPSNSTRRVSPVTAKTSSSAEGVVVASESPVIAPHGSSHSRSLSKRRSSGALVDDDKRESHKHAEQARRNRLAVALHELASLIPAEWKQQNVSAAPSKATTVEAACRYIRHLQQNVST
| Strand | fluorescence intensity [a.u.] |
| --- | --- |
| TCTGGATCAGAAGATTACGTGTCCTGAGAAGATTAT | 4880 |
| TGCGCAACAACTTGGGATGTGGGTGTATGTCTAGAA | 5210 |
| TTTGACTGCGTCGCGGGCGTGCTGTACGACCTCGAC | 6770 |
| TGCGCAACAACTTGCTGAGTGGGTGTATGTCTAGAA | 4740 |
| CTAATAGCGTCGTTGGTCGTGACGGCGTTTACTGCA | 5410 |
| AAAGCGGTAATTTGGGACGTGGGTGCAGATATCTAT | 7710 |
| TGCGCAACAACTTGTTTAGTGGGTGTATGTCTAGAA | 4530 |
| TATGGGTTGTCTGAACCCGTGACTCGTAGATCAGAA | 6160 |

Other studies, line by line
| Molecule | partner | technique | sample | with | quantity | result |
| --- | --- | --- | --- | --- | --- | --- |
| RFC2 (Homo sapiens, UniProt P35250) | RFC1 (Homo sapiens, UniProt P35251) | cross-linking MS | cell fractions | DMTMM | cross-linked residues | E329 to K928 |

A few entries again (series 2):
| Structure (SMILES) | remaining activity [%] |
| --- | --- |
| O=C(NC(NC(=S)Nc1ccc(F)c([N+](=O)[O-])c1)C(Cl)(Cl)Cl)C(c1ccccc1)c1ccccc1 (stereo not shown) | 104 |
| N#C/C(=C\c1ccc(O)c(O)c1)C(=O)NCc1ccccc1 | 95.1 |
| CCOc1nc(NC(=O)Cc2cc(OC)ccc2OC)cc(N)c1C#N | 109 |
| Nc1cccc(-c2cc3c(Oc4cccc(O)c4)ncnc3[nH]2)c1 | 142 |
| c1ccc(-c2[nH]ncc2-c2ccnc3ccccc23)nc1 | 93 |
